Experimental data gathered from unrelated publications.
Numbered parts are unrelated; each lists some results of a single study. Substitutions count along the parent as printed.

Series 1
Target: Interferon regulatory factor 3, full length, phosphomimetic (IRF3, Homo sapiens, UniProt Q14653, residues 1-427, S386D/S396D/S398D/S402D/T404D/S405D)
Technique: protein-binding microarray
Form: double-stranded DNA, one strand shown
Matrix: in vitro
Tested at: 2540 nM top
Notes: 60-bp whole probe
Together with: salmon DNA 0.4 mg/ml
Relative to: random background probes
Reading: higher = stronger binding
Shared flanks, not repeated: GCCTAGCAC … GTCTTGATTCGCTTGACGCTGCTG
Construct (chain): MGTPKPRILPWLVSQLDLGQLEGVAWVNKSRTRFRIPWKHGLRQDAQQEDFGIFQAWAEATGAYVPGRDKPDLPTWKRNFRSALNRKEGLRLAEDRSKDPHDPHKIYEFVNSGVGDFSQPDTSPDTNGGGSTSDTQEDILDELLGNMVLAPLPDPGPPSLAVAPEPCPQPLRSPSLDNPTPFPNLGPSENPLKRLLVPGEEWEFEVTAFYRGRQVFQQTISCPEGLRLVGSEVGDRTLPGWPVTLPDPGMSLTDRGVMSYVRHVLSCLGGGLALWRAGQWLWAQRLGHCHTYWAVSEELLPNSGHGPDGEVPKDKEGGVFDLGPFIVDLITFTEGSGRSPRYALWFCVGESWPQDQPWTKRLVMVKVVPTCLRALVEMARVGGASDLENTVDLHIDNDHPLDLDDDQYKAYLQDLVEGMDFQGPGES
`GAAGGTTTCGGACTGGGGACGTGCTAG` — result for “fitted relative affinity”: 4.13 z-score.
Under “fitted relative affinity”, `TCTGTTTTCGCTTTCTTTAAGTGCTAG` is recorded as 4.74 z-score.
Under “fitted relative affinity”, `GACGGTATCGGATATCGGGACGTGCTA` is recorded as 2.87 z-score.
For `TTAGGTTTCCGGTTTCGGTTAGTGCTA`, “fitted relative affinity” read 6.45 z-score.
For `CACGGTTTCGGGTATCGGGACGTGCTA`, “fitted relative affinity” read 4.09 z-score.
`ACTAGATAAGACAAAGTGATGTGCTAG` — result for “fitted relative affinity”: -0.159 z-score.
For `TTAGAAATCGGGTTTCGATTAGTGCTA`, “fitted relative affinity” read 2.04 z-score.
For `TTAGATATCAGTCTTGATTAGTGCTAG`, “fitted relative affinity” read 1.11 z-score.
`TCAGGTCTCGGTCTCGGTTAGTGCTAG` — result for “fitted relative affinity”: 1.84 z-score.
`GACGGTATCCTACTGCTGAGGTGCTAG` — result for “fitted relative affinity”: 2.63 z-score.
`GGCGGACTGGACTTTCGGGACGTGCTA`: “fitted relative affinity” -0.157 z-score.
`TTACGTATCCTTCTCCTTTAGTGCTAG` — result for “fitted relative affinity”: 6.18 z-score.
`GACGGACTGGACTATCGGGATGTGCTA`: “fitted relative affinity” -0.651 z-score.
For `TTTTCAGCATCGCTCAGCACGTGCTAG`, “fitted relative affinity” read 1.02 z-score.
`CACTCTCTGGGCTGTGGGTTTGTGCTA`: “fitted relative affinity” 1.23 z-score.
`CCTAGTTTCATTCCTGATCTGTGCTAG`: “fitted relative affinity” 3.95 z-score.
`TTAGCTTTCGGGTATCGGTTAGTGCTA` — result for “fitted relative affinity”: 2.2 z-score.
`ATATGTGTATATATAATATAGTGCTAG` — result for “fitted relative affinity”: 0.624 z-score.
`CATTGCTTGTGTTTATTGTGGTGCTAG`: “fitted relative affinity” -0.00676 z-score.
Under “fitted relative affinity”, `ACCAGTTTTCTTTTCATTACGTGCTAG` is recorded as 5.35 z-score.
`TTAGGTTTCGATCTCGGTTAGTGCTAG` — result for “fitted relative affinity”: 7.59 z-score.
`TTGGGTATCGACACTGGGTTAGTGCTA` — result for “fitted relative affinity”: -0.449 z-score.
`GACCGACTGGGTATCGGGACGTGCTAG`: “fitted relative affinity” 0.344 z-score.
Under “fitted relative affinity”, `GACCGTATCGGTCTCGGGACGTGCTAG` is recorded as 4.86 z-score.
`TTAGATTTCGGGTTTCGATCAGTGCTA`: “fitted relative affinity” 3 z-score.

Series 2
Target: TAR DNA-binding protein 43, full length, His tag (TARDBP, Homo sapiens, UniProt Q13148, residues 1-414)
Technique: RNA Bind-n-Seq
Form: RNA
Matrix: in vitro
Tested at: 20 nM
Notes: 6-mer, flanks averaged, single round
Together with: 150 mM KCl
Relative to: input library
Reading: higher = stronger binding
For `AGUUUG`, “6-mer enrichment (R)” read 0.836.
Under “6-mer enrichment (R)”, `CUGCGA` is recorded as 0.794.
Under “6-mer enrichment (R)”, `CGAGCG` is recorded as 1.52.
`AUGUUC` — result for “6-mer enrichment (R)”: 0.603.
Under “6-mer enrichment (R)”, `UUUGUG` is recorded as 0.982.
`UUAUCA` — result for “6-mer enrichment (R)”: 0.552.
`UCAUGU` — result for “6-mer enrichment (R)”: 0.641.
For `GUGUCU`, “6-mer enrichment (R)” read 0.832.
`AACUAA`: “6-mer enrichment (R)” 0.663.
`CUCGUC`: “6-mer enrichment (R)” 0.586.

Series 3
Target: CREBL2, bZIP domain (human)
Technique: DHFR protein complementation
Matrix: yeast
Notes: single substitutions, most at no-binding floor
Relative to: wild-type JUN-FOS pair
Reading: higher = stronger binding
Starting sequence: JUN, bZIP domain (human); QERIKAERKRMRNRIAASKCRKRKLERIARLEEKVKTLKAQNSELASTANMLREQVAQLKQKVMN; partner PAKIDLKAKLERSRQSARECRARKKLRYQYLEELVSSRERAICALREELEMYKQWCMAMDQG
`T48E` gave a binding fitness of -1.53 natural log.
With `S43W` the binding fitness was -1.36 natural log.
For `I28H`, the binding fitness was -1.48 natural log.
`S47A` has a binding fitness of -1.46 natural log.
`L38E` has a binding fitness of -1.54 natural log.
The binding fitness of `R53D` is reported as -1.43 natural log.
For `A46D`, the binding fitness was -1.46 natural log.
For `L45F`, the binding fitness was -1.43 natural log.
`R53M` has a binding fitness of -1.53 natural log.
The binding fitness of `A46V` is reported as -1.41 natural log.
The binding fitness of `M51P` is reported as -1.51 natural log.
`Q41I` gave a binding fitness of -1.58 natural log.

Series 4
Target: Protein max, full length (MAX, Homo sapiens, UniProt P61244-2, residues 1-151)
Technique: protein-binding microarray
Form: double-stranded DNA, one strand shown
Matrix: in vitro
Tested at: not given
Notes: k-mer, scored over probes, only values ≥0.25
Reading: higher = stronger binding
The E-score of `ACATGTGC` is reported as 0.487.
`ACATGACT` has an E-score of 0.341.
With `AACGTGAA` the E-score was 0.253.
With `CGTGTCAA` the E-score was 0.347.
`GCACGCCC` has an E-score of 0.335.
The E-score of `ACCCCGCC` is reported as 0.279.
With `CCCACACC` the E-score was 0.281.
For `GTGGCTTA`, the E-score was 0.298.
The E-score of `CACCACAC` is reported as 0.289.
`GAACGCAC` gave an E-score of 0.283.
With `CCGCCTGA` the E-score was 0.251.
With `CACGGGCG` the E-score was 0.251.
`GCCCACCC` has an E-score of 0.368.

Series 5
Target: ABI1, truncated, D143A, DHFR fusion (Arabidopsis thaliana)
Technique: DHFR PCA, deep sequencing
Matrix: yeast
Notes: methotrexate growth selection, single substitutions
Together with: (+)-ABA 200 µM
Relative to: wild-type fitted maximum
Reading: higher = stronger binding
Starting sequence: PYL1, truncated, DHFR fusion (Arabidopsis thaliana); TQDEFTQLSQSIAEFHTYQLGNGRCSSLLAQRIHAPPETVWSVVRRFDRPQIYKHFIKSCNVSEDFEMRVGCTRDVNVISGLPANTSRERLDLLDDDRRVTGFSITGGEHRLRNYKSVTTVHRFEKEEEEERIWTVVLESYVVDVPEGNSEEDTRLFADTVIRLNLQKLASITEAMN
Under “relative binding score”, `V70A` is recorded as 96.4%.
For `R155A`, “relative binding score” read 74.7%.
`S140N`: “relative binding score” -7.74%.
`V118T` — result for “relative binding score”: 103%.
`I172V` — result for “relative binding score”: 102%.
For `N85S`, “relative binding score” read 105%.
`K58F`: “relative binding score” 80.2%.
For `P146M`, “relative binding score” read 36.8%.
`D92R`: “relative binding score” 49.9%.
`W41R` — result for “relative binding score”: -0.182%.
For `I52V`, “relative binding score” read 106%.
`Q7T` — result for “relative binding score”: 96.4%.

Series 6
Target: CCNE1, cyclin fold, Cln2 fusion (human)
Technique: yeast growth competition, sequencing
Matrix: yeast
Notes: weak parent motif
Relative to: not given
Reading: higher = stronger binding
Starting sequence: ORC1 docking peptide (human); PRARKRLELGNLG
Under “normalised enrichment score”, `P1W` is recorded as 1.26.
`A3N`: “normalised enrichment score” 0.904.
`R2T`: “normalised enrichment score” 1.2.
`R4A` — result for “normalised enrichment score”: 0.185.
`N11Y` — result for “normalised enrichment score”: 1.3.
Under “normalised enrichment score”, `G10R` is recorded as -0.08.
`R4T`: “normalised enrichment score” 0.876.
Under “normalised enrichment score”, `R4F` is recorded as -0.201.
`L7Y`: “normalised enrichment score” 0.102.
Under “normalised enrichment score”, `G10Q` is recorded as -0.429.
Under “normalised enrichment score”, `L12Y` is recorded as 0.188.

Series 7
Target: Phosphate system positive regulatory protein PHO4, full length, GST-tagged (PHO4, Saccharomyces cerevisiae, UniProt P07270, residues 1-312)
Technique: competition protein-binding microarray
Form: double-stranded DNA, one strand shown
Matrix: in vitro
Tested at: 2 µM
Notes: whole 60-bp probe, lowest competitor level
Together with: Cbf1 competitor, 0.05 µM
Reading: higher = stronger binding
Residues (chain): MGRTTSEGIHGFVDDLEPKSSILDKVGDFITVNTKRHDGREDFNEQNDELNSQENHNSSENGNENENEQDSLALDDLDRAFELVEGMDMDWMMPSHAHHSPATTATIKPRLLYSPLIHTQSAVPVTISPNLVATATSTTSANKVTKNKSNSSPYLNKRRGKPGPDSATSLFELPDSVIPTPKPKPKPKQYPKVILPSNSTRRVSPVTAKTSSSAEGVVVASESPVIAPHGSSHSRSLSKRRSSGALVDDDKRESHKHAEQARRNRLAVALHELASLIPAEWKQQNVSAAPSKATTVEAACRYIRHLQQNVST
The fluorescence intensity of `CGTCCTAGTGATTTTCACGTGAGATCCATGAGGAAGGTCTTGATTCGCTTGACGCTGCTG` is reported as 10100 a.u.
The fluorescence intensity of `ATGAAATGCTGGAATCACCTGACTCACAAAACTGGGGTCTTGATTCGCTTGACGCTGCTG` is reported as 3850 a.u.
With `AAGAAGCCATTAGAGCTCGTGCCAGGGAACTAGAAGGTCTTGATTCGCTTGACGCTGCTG` the fluorescence intensity was 12100 a.u.
The fluorescence intensity of `CGACATCTATCGCCATTCGTGCGGACATTTCTCGAAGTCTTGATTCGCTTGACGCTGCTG` is reported as 5950 a.u.
For `TCGGTTGTCCAAACCCATGTGGTGCTGGTGGCGGAAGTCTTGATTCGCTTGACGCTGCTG`, the fluorescence intensity was 9530 a.u.
With `CGGGGTTAAGTTTGAAATGTGGGTGGCTTGCAGCAGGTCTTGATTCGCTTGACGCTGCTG` the fluorescence intensity was 5800 a.u.
The fluorescence intensity of `TCTCTTTGAAGCCGTCACGATAGTTACAGCTAGGGTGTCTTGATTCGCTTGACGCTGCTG` is reported as 4880 a.u.
The fluorescence intensity of `GTTCGACAGTATTGGCGCATGACAAAAGACGAGCCGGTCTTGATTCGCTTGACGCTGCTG` is reported as 4810 a.u.
For `GTCTTGTCTCATTGTCGGGTGGGTGTCCCCACTTCAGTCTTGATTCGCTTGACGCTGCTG`, the fluorescence intensity was 4570 a.u.
For `GAAGCACTTGCCTTCACCGTGCGGAGCGTCGAATTGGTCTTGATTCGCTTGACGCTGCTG`, the fluorescence intensity was 5850 a.u.
The fluorescence intensity of `TGCGCAACAACTTGTGATGTGGGTGTATGTCTAGAAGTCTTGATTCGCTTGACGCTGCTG` is reported as 5950 a.u.

Some of these lines once more (series 5):
Under “relative binding score”, `V70A` is recorded as 96.4%.
For `R155A`, “relative binding score” read 74.7%.
`S140N`: “relative binding score” -7.74%.
`V118T` — result for “relative binding score”: 103%.
`I172V` — result for “relative binding score”: 102%.
For `N85S`, “relative binding score” read 105%.
`K58F`: “relative binding score” 80.2%.
For `P146M`, “relative binding score” read 36.8%.
`D92R`: “relative binding score” 49.9%.
`W41R` — result for “relative binding score”: -0.182%.
For `I52V`, “relative binding score” read 106%.
`Q7T` — result for “relative binding score”: 96.4%.
